Results gathered from unrelated publications.
Numbered parts are unrelated; each lists some results of a single study.

Set 1 — method: protein binding microarray; molecule type: double-stranded DNA, one strand shown; sample: in vitro; concentration: not given; reference: not given; reading: higher = stronger binding; measurement: E-score
Target: Histone acetyltransferase KAT6A, winged helix 2, GST fusion (KAT6A, Homo sapiens, UniProt Q92794, residues 85-181)
Notes: 8-mer, flanks averaged, mean of 2 arrays, mostly near background
Target sequence (chain): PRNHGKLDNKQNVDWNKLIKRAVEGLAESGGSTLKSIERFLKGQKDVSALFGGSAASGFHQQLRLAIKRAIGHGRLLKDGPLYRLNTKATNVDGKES
AGTGTAGG: -0.089
AGAGACGA: -0.0306
TCACATAA: -0.0266

Set 2 — method: protein-binding microarray; molecule type: double-stranded DNA, one strand shown; sample: in vitro; concentration: 2540 nM top; notes: 60-bp whole probe; added: salmon DNA 0.4 mg/ml; reference: random background probes; reading: higher = stronger binding; measurement: fitted relative affinity; shared flanks, not repeated: GCCTAGCAC … GTCTTGATTCGCTTGACGCTGCTG
Target: Interferon regulatory factor 3, full length, phosphomimetic (IRF3, Homo sapiens, UniProt Q14653, residues 1-427, S386D/S396D/S398D/S402D/T404D/S405D)
Residues (chain): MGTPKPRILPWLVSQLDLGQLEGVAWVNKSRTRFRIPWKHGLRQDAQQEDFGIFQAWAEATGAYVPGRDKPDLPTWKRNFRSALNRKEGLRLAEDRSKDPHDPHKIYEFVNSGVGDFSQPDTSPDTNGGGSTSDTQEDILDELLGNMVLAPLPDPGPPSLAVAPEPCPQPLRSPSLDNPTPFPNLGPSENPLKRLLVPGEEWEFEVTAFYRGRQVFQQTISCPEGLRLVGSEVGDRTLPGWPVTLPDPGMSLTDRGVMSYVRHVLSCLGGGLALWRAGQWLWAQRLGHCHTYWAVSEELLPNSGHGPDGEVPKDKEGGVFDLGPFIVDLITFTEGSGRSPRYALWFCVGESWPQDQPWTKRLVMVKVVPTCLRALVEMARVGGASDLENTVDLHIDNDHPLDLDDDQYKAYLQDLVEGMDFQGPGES
TTAGGACTGGACTATCGGTAAGTGCTA: -0.381 z-score
GACGGTATCGGGTATCGGGATGTGCTA: 1.88 z-score
TTAGGTTTCGACTGTCGGTTAGTGCTA: 1.78 z-score
TTCGGACTGCTTATCCTTTAGTGCTAG: 0.0207 z-score
GACGGTCTCGGTCGCGGGACGTGCTAG: 0.0869 z-score

Further values, each from its own experiment
SALL4 full length isoform A: Sal-like protein 4, full length isoform A (SALL4, Homo sapiens, UniProt Q9UJQ4, residues 1-1053)
GTCACGAC  E-score (SALL4 full length isoform A; universal PBM; double-stranded DNA, one strand shown, in vitro; 600 nM, 8-mer, flanks averaged, mean of replicates; higher = stronger binding): 0.00577
PhoQ, residues 284 288 289 292 302 303 SLANKL  fold induction (PhoP, residues 12 14 15 18 19 QQAYL (Escherichia coli, UniProt P23836); Sort-seq, refers to: YFP reporter; E. coli; PhoQ-PhoP variant library, added: 10 µM Mg2+; reference: high Mg2+ state, higher = stronger signaling): 6.17
GAAGTTAA  E-score (Sal-like protein 4, full length isoform B (SALL4, Homo sapiens, UniProt Q9UJQ4-2, residues 1-616); universal PBM; double-stranded DNA, one strand shown, in vitro; not given, 8-mer, flanks averaged, mean of replicates; higher = stronger binding): 0.0973
CTTGGAAA  E-score (SALL4 full length isoform A; universal PBM; double-stranded DNA, one strand shown, in vitro; 600 nM, 8-mer, flanks averaged, mean of replicates; higher = stronger binding): 0.045
